Published values from different studies.
Compare with care: the assays were run in different laboratories. ± gives the spread as reported. Values after ≈ are worked out from the molar mass of the structure shown.
Organism: Escherichia coli

SMILES	test	test system	conditions	scale	measurement	result
CCCCCCCCCC(=O)Oc1c(C)c(OC)c2c(/C=C/c3ccccc3)c(CCCCCCCC)c(=O)oc2c1C	microbial killing, broth dilution	ATCC25922	–	–	MBC	> 5000 µg/mL
CC1=N/C(=C\c2cc(F)c(O)c(F)c2)C(=O)N1Cc1ccc(CO)cc1	cytoplasmic accumulation, flow cytometry	–	–	–	lowest detectable concentration	10 nM
CO[C@@H]1[C@@H](OC)[C@H]2O[C@H]3[C@H](OC)[C@@H](OC)[C@@H](O[C@H]4[C@H](OC)[C@@H](OC)[C@@H](O[C@H]5[C@H](OC)[C@@H](OC)[C@@H](O[C@H]6[C@H](OC)[C@@H](OC)[C@@H](O[C@H]7[C@H](OC)[C@@H](OC)[C@@H](O[C@@H]1[C@@H](Cn1cc(CCCC(=O)N[C@H]8CCOC8=O)nn1)O2)O[C@@H]7Cn1cc(CCCC(=O)N[C@H]2CCOC2=O)nn1)O[C@@H]6Cn1cc(CCCC(=O)N[C@H]2CCOC2=O)nn1)O[C@@H]5Cn1cc(CCCC(=O)N[C@H]2CCOC2=O)nn1)O[C@@H]4Cn1cc(CCCC(=O)N[C@H]2CCOC2=O)nn1)O[C@@H]3Cn1cc(CCCC(=O)N[C@H]2CCOC2=O)nn1	LuxR reporter, antagonist	DH5α sensor strain	100 µM, with: OHHL 200 nM	–	inhibition	29 ± 4%
CC[C@H](C)[C@H](NC(=O)[C@H](CCCN)NC(=O)[C@H](CC(N)=O)NC(=O)[C@H](Cc1c[nH]c2ccccc12)NC(=O)[C@H](Cc1ccccc1)NC(=O)[C@H](CCCN)NC(=O)[C@H](CCCCNC(=N)N)NC(=O)[C@H](CC(C)C)NC(=O)[C@H](Cc1c[nH]c2ccccc12)NC(=O)[C@H](CCCN)NC(=O)[C@H](CCCCNC(=N)N)NC(=O)[C@H](CC(C)C)NC(=O)CNC(C)=O)C(=O)N[C@@H](CCCN)C(=O)N[C@@H](CCCCNC(=N)N)C(N)=O	–	ATCC 25922	concentration not given, with: FeCl3 4 µM	reference: without salt	MIC fold change	1 fold
CC(CCCOC(=O)CCC[N+](C)(C)C)C1CCC2C3CCC4CC(OC(=O)CCC[N+](C)(C)C)CCC4(C)C3CCC12C (stereo not shown)	microbial growth, disc diffusion	ATCC25922	250 µg/disc, 24 h	–	inhibition zone	15 mm
O=C(CCCc1cn(C[C@H]2O[C@@H]3O[C@H]4[C@H](O)[C@@H](O)[C@@H](O[C@H]5[C@H](O)[C@@H](O)[C@@H](O[C@H]6[C@H](O)[C@@H](O)[C@@H](O[C@H]7[C@H](O)[C@@H](O)[C@@H](O[C@H]8[C@H](O)[C@@H](O)[C@@H](O[C@H]9[C@H](O)[C@@H](O)[C@@H](O[C@H]2[C@H](O)[C@H]3O)O[C@@H]9CO)O[C@@H]8CO)O[C@@H]7CO)O[C@@H]6CO)O[C@@H]5CO)O[C@@H]4CO)nn1)N[C@H]1CCOC1=O	LuxR reporter, antagonist	DH5α sensor strain	200 µM, with: OHHL 200 nM	–	inhibition	28 ± 3%
O=c1c(O)ccccc1O	microbial growth, broth dilution	ATCC35218	–	–	MIC80	66.7 µM (≈ 9.21 µg/mL)
N=C(N)NCCC[C@@H]1NC(=O)[C@H](CCCNC(=N)N)NC(=O)[C@@H](CCCNC(=N)N)NC(=O)[C@@H](CCCNC(=N)N)NC(=O)[C@@H](C(c2ccccc2)c2ccccc2)NC(=O)[C@H](Cc2c[nH]c3ccccc23)NC(=O)[C@@H](C(c2ccccc2)c2ccccc2)NC1=O	–	ATCC BAA-2452	2 x MIC, 24 h, preformed biofilm	–	biofilm mass reduction	63 to 69%
OC[C@H]1O[C@@H]2O[C@H]3[C@H](O)[C@@H](O)[C@@H](O[C@H]4[C@H](O)[C@@H](O)[C@@H](O[C@H]5[C@H](O)[C@@H](O)[C@@H](O[C@H]6[C@H](O)[C@@H](O)[C@@H](O[C@H]7[C@H](O)[C@@H](O)[C@@H](O[C@H]1[C@H](O)[C@H]2O)O[C@@H]7CO)O[C@@H]6CO)O[C@@H]5CO)O[C@@H]4CO)O[C@@H]3CO	LuxR reporter, antagonist	DH5α sensor strain	40 µM, with: OHHL 200 nM	–	inhibition	4 ± 6%
CC(C)C1=CC2=CCC3C(C)(C(=O)OCCC[N+](C)(C)C)CCCC3(C)C2CC1 (stereo not shown)	microbial growth, disc diffusion	ATCC25922	62.5 µg/disc, 24 h	–	inhibition zone	9 mm
O=C(Oc1cccccc1=O)c1cccc(Cl)c1	microbial growth, broth dilution	ATCC35218	–	–	MIC80	> 100 µM
Cc1ccnc(-c2cc(C(=O)NCCCCCC(=O)N[C@@H](CCCNC(=N)N)C(=O)N[C@@H](Cc3c[nH]c4ccccc34)C(=O)N[C@@H](CCCNC(=N)N)C(=O)N[C@@H](Cc3c[nH]c4ccccc34)C(=O)N[C@@H](CCCNC(=N)N)C(=O)N[C@@H](Cc3c[nH]c4ccccc34)C(N)=O)ccn2)c1	–	susceptible	16 µM, light irradiation	–	reduction in viable count	≥ 3 log10 CFU
CC(CCCOC(=O)CCC[N+](C)(C)C)C1CCC2C3CCC4CC(OC(=O)CCC[N+](C)(C)C)CCC4(C)C3CC(OC(=O)CCC[N+](C)(C)C)C12C (stereo not shown)	microbial growth, disc diffusion	ATCC25922	250 µg/disc, 24 h	–	inhibition zone	11 mm
CO[C@@H]1[C@@H](OC)[C@H]2O[C@H]3[C@H](OC)[C@@H](OC)[C@@H](O[C@H]4[C@H](OC)[C@@H](OC)[C@@H](O[C@H]5[C@H](OC)[C@@H](OC)[C@@H](O[C@H]6[C@H](OC)[C@@H](OC)[C@@H](O[C@H]7[C@H](OC)[C@@H](OC)[C@@H](O[C@H]8[C@H](OC)[C@@H](OC)[C@@H](O[C@@H]1[C@@H](Cn1cc(CCCC(=O)N[C@H]9CCOC9=O)nn1)O2)O[C@@H]8Cn1cc(CCCC(=O)N[C@H]2CCOC2=O)nn1)O[C@@H]7Cn1cc(CCCC(=O)N[C@H]2CCOC2=O)nn1)O[C@@H]6Cn1cc(CCCC(=O)N[C@H]2CCOC2=O)nn1)O[C@@H]5Cn1cc(CCCC(=O)N[C@H]2CCOC2=O)nn1)O[C@@H]4Cn1cc(CCCC(=O)N[C@H]2CCOC2=O)nn1)O[C@@H]3Cn1cc(CCCC(=O)N[C@H]2CCOC2=O)nn1	LuxR reporter, antagonist	DH5α sensor strain	100 µM, with: OHHL 200 nM	–	inhibition	21 ± 1%
CC[C@H](C)[C@H](NC(=O)[C@H](CC1CCCCC1)NC(=O)[C@@H](CC(C)C)NC(=O)[C@@H](N)CCCN)C(=O)N[C@H](Cc1ccccc1)C(=O)N[C@@H](Cc1cn(Cc2ccccc2)cn1)C(N)=O	bacterial growth	ATCC 35218	–	–	IC50	> 20 µg/mL
COc1c(C)c(O)c(C(=O)C=Cc2ccccc2)c(OC)c1C	microbial killing, broth dilution	ATCC25922	–	–	MBC	> 5000 µg/mL
CC(NC(=O)c1ccccc1)C(CCCCCCCCCCCCCCC(=O)CCCCCCCC(OC(=O)c1ccccc1)C(C)NC(=O)c1ccccc1)OC(=O)c1ccccc1 (stereo not shown)	resazurin	ATCC 10536	50 µM	–	growth inhibition	0 ± 4.89%
O=C(CCCc1cn(C[C@H]2O[C@@H]3O[C@H]4[C@H](O)[C@@H](O)[C@@H](O[C@H]5[C@H](O)[C@@H](O)[C@@H](O[C@H]6[C@H](O)[C@@H](O)[C@@H](O[C@H]7[C@H](O)[C@@H](O)[C@@H](O[C@H]8[C@H](O)[C@@H](O)[C@@H](O[C@H]2[C@H](O)[C@H]3O)O[C@@H]8Cn2cc(CCCC(=O)N[C@H]3CCOC3=O)nn2)O[C@@H]7Cn2cc(CCCC(=O)N[C@H]3CCOC3=O)nn2)O[C@@H]6Cn2cc(CCCC(=O)N[C@H]3CCOC3=O)nn2)O[C@@H]5Cn2cc(CCCC(=O)N[C@H]3CCOC3=O)nn2)O[C@@H]4Cn2cc(CCCC(=O)N[C@H]3CCOC3=O)nn2)nn1)N[C@H]1CCOC1=O	LuxR reporter, antagonist	DH5α sensor strain	20 µM, with: OHHL 200 nM	–	inhibition	5 ± 4%
CCCC(=O)Oc1c(C)c(OC)c2c(c1C)OC(=O)[C@@H](CC)[C@]2(O)/C=C/c1ccccc1 (racemic)	microbial killing, broth dilution	ATCC25922	–	–	MBC	> 5000 µg/mL
CC[C@H](C)[C@H](NC(=O)[C@H](CC1CCCCC1)NC(=O)[C@@H]1CCCN1C(=O)[C@@H](N)CCCN)C(=O)N[C@H](Cc1ccccc1)C(=O)N[C@@H](Cc1cn(Cc2ccccc2)cn1)C(N)=O	bacterial growth	ATCC 35218	–	–	IC50	> 20 µg/mL
O=C(CCCc1cn(C[C@H]2O[C@@H]3O[C@H]4[C@H](O)[C@@H](O)[C@@H](O[C@H]5[C@H](O)[C@@H](O)[C@@H](O[C@H]6[C@H](O)[C@@H](O)[C@@H](O[C@H]7[C@H](O)[C@@H](O)[C@@H](O[C@H]8[C@H](O)[C@@H](O)[C@@H](O[C@H]9[C@H](O)[C@@H](O)[C@@H](O[C@H]2[C@H](O)[C@H]3O)O[C@@H]9Cn2cc(CCCC(=O)N[C@H]3CCOC3=O)nn2)O[C@@H]8Cn2cc(CCCC(=O)N[C@H]3CCOC3=O)nn2)O[C@@H]7Cn2cc(CCCC(=O)N[C@H]3CCOC3=O)nn2)O[C@@H]6Cn2cc(CCCC(=O)N[C@H]3CCOC3=O)nn2)O[C@@H]5Cn2cc(CCCC(=O)N[C@H]3CCOC3=O)nn2)O[C@@H]4Cn2cc(CCCC(=O)N[C@H]3CCOC3=O)nn2)nn1)N[C@H]1CCOC1=O	LuxR reporter, antagonist	DH5α sensor strain	4 µM, with: OHHL 200 nM	–	inhibition	26 ± 10%
COc1cc2c(cc1OC)C1Cc3ccc(OC)c(OC)c3C[NH+]1CC2.[Cl][Fe-]([Cl])([Cl])[Cl] (stereo not shown)	–	–	24 h, 37 °C	–	MIC50	1410 µM
